Measurements of several laboratories.
Parts stem from different laboratories: compare values within a part only.
Chain of UniProt Q13976 (whole entry, looked up): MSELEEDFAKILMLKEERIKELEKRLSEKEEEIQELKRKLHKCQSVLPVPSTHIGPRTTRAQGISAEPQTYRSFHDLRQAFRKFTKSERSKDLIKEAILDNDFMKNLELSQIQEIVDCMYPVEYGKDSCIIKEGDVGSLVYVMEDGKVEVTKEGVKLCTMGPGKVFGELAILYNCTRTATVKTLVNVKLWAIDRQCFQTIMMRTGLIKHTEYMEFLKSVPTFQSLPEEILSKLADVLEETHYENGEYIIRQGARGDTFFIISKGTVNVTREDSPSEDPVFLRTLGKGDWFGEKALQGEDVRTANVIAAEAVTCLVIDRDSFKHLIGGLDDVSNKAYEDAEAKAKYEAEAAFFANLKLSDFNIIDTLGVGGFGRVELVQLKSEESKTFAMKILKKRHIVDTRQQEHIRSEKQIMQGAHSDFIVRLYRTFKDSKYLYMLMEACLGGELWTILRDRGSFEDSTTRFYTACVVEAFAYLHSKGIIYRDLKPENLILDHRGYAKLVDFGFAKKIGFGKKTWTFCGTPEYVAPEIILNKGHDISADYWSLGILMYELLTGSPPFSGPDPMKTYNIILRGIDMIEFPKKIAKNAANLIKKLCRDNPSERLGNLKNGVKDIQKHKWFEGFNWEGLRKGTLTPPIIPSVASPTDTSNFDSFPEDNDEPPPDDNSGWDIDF
Chain of UniProt O94804 (whole entry, looked up): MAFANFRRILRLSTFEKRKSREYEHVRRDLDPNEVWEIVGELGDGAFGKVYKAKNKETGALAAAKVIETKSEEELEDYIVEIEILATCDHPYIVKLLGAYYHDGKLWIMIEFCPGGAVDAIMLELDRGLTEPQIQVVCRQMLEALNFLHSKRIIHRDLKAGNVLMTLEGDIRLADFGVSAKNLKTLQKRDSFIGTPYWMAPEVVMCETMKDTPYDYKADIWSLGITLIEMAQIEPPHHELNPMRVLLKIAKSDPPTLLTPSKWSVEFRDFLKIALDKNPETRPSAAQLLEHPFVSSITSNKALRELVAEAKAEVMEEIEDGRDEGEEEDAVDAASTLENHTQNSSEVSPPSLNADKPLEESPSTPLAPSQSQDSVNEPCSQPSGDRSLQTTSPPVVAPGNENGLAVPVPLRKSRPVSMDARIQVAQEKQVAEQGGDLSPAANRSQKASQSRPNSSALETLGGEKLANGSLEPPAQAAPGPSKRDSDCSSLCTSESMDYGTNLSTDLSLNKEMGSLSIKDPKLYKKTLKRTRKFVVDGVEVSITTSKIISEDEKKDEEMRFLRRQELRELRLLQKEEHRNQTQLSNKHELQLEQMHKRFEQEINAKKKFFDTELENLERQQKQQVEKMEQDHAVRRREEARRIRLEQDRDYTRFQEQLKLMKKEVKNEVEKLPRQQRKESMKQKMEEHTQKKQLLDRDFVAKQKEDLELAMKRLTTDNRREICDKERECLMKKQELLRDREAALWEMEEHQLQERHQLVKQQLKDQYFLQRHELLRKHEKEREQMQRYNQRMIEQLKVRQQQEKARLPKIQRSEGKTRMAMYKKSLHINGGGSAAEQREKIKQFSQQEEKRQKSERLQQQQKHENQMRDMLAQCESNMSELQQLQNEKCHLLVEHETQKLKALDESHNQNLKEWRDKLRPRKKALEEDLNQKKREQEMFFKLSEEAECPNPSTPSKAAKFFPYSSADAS
Chain of UniProt P07948 (whole entry, looked up): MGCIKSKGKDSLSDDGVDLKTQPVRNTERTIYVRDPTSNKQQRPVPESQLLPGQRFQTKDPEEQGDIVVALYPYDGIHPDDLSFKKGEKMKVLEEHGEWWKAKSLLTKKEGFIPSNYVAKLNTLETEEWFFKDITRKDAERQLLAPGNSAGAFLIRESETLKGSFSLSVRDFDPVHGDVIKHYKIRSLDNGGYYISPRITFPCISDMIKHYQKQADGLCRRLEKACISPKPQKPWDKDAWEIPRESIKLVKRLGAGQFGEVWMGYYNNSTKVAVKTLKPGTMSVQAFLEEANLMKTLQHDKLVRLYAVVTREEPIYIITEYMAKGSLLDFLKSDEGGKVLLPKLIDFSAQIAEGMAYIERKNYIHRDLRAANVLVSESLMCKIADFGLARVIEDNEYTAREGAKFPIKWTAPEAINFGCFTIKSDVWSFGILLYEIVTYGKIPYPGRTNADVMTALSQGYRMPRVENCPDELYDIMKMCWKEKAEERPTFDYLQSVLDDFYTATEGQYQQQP
Chain of UniProt P37173 (whole entry, looked up): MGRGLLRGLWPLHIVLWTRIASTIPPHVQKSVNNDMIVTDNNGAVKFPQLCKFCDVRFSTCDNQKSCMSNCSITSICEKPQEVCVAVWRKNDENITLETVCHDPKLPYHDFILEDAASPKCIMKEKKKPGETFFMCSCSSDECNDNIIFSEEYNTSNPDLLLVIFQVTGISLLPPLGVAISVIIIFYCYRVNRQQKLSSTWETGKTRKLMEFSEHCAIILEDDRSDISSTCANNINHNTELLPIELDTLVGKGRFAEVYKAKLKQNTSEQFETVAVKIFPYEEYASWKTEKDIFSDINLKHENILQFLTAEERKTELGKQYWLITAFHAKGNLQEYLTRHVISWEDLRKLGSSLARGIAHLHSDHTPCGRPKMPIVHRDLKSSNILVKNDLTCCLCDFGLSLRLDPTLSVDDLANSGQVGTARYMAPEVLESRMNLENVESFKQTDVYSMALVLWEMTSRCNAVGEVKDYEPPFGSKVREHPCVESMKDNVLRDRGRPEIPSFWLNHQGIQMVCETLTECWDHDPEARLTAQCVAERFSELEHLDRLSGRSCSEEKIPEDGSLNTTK
Chain of UniProt P35626 (whole entry, looked up): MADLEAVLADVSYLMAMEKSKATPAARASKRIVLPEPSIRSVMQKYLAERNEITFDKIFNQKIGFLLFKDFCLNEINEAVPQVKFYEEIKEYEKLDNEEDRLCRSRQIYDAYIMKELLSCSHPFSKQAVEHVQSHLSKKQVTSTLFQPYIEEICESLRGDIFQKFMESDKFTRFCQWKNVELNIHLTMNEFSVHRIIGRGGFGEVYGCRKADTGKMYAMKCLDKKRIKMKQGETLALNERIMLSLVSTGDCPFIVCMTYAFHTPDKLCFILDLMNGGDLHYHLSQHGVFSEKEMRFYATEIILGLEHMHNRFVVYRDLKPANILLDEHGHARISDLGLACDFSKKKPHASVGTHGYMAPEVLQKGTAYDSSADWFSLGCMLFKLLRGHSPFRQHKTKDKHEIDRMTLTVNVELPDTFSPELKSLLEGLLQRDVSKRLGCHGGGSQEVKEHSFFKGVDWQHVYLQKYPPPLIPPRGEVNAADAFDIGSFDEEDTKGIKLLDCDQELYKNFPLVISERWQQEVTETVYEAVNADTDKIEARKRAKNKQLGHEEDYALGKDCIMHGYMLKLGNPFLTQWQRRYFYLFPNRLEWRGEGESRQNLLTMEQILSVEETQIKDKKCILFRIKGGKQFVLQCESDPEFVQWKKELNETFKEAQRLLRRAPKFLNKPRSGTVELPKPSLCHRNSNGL
Chain of UniProt Q99759 (whole entry, looked up): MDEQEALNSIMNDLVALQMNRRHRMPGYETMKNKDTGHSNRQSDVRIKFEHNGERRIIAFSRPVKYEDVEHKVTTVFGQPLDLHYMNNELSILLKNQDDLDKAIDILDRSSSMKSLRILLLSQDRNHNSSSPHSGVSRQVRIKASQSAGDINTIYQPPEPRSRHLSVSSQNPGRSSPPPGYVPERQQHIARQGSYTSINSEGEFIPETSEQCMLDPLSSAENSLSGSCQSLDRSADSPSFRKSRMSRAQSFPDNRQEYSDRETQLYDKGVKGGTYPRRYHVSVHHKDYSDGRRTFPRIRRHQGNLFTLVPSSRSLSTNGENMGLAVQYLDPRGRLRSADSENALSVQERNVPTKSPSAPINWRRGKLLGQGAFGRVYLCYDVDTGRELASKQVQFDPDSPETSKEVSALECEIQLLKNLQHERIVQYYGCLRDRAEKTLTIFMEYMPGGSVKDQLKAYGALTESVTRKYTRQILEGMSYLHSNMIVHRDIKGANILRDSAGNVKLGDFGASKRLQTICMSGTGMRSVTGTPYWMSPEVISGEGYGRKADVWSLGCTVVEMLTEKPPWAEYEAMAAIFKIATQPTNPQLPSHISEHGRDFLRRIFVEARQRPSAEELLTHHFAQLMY
Chain of UniProt Q00535 (whole entry, looked up): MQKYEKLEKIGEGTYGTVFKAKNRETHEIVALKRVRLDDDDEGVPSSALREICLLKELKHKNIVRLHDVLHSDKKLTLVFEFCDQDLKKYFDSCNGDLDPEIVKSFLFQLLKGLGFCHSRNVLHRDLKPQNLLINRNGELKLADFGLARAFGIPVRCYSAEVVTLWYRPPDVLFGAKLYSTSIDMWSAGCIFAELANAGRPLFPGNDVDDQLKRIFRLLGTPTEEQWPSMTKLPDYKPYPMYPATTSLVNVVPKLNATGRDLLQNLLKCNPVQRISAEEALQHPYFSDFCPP

Series 1 — cell line: HaCaT; concentration: 100 µM; time: 60 h; quantity: viability
CC(C)[C@H]1CC[C@H](C(=O)N[C@H](Cc2ccccc2)C(=O)O)CC1: 119%
Cc1cc(=O)n(-c2ccccc2)n1C: 152%
NC(=O)N1c2ccccc2CC(=O)c2ccccc21: 34.8%
NC[C@H]1O[C@H](O[C@H]2[C@H](O)[C@@H](O[C@H]3O[C@H](CO)[C@@H](O)[C@H](N)[C@H]3O)[C@H](N)C[C@@H]2N)[C@H](O)[C@@H](O)[C@@H]1O: 148%
CC[C@@]1(O)C(=O)OCc2c1cc1n(c2=O)Cc2cc3c(CN(C)C)c(O)ccc3nc2-1: 17.8%
CNC(=O)c1cnn(-c2nc(N)c3ncn([C@@H]4O[C@H](CO)[C@@H](O)[C@H]4O)c3n2)c1: 129%

Series 2 — action: inhibitor; concentration: 10 µM; reference: control; quantity: remaining activity
Target: Diamine acetyltransferase 1 (Homo sapiens, UniProt P21673)
Target sequence (P21673 1-171): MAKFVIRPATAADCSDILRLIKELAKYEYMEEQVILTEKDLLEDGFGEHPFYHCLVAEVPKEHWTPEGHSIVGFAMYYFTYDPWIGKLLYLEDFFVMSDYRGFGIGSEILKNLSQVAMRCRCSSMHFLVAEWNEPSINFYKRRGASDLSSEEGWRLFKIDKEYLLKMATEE
C=C(C)[C@@H]1CC[C@]2(C(=O)O)CC[C@]3(C)[C@H](CC[C@@H]4[C@@]5(C)CC[C@H](O)C(C)(C)[C@@H]5CC[C@]43C)[C@@H]12: 83.4%
CCCCCCCCCCCCCCCC(=O)O: 87%
O=C(O)CC(O)(CC(=O)OCc1ccc(O[C@@H]2O[C@H](CO)[C@@H](O)[C@H](O)[C@H]2O)cc1)C(=O)OCc1ccc(O[C@@H]2O[C@H](CO)[C@@H](O)[C@H](O)[C@H]2O)cc1 (stereo partly drawn): 106%
O=c1c(O)c(-c2ccc(O)c(O)c2)oc2c(O[C@@H]3O[C@H](CO)[C@@H](O)[C@H](O)[C@H]3O)c(O)cc(O)c12: 103%
OC[C@H]1O[C@@H](Oc2c(O)cc(O)cc2/C=C\c2ccc(O)cc2)[C@H](O)[C@@H](O)[C@@H]1O: 111%
CC(C)=CCC/C(C)=C/CC/C(C)=C/CO: 94.5%

Series 3 — technique: competition with immobilised ligand; concentration: 1 µM; quantity: remaining binding
Compound: C[C@H](c1ccc(F)cc1)N(Cc1cccc(C(=O)O)c1)C(=O)c1cnc2ccccc2c1
Phosphatidylinositol 3-kinase catalytic subunit type 3 (PIK3C3, Homo sapiens, UniProt Q8NEB9); cell-free assay: 100%
Serine/threonine-protein kinase TNNI3K (TNNI3K, Homo sapiens, UniProt Q59H18); cell-free assay: 97%
Mitogen-activated protein kinase 14 (MAPK14, Homo sapiens, UniProt Q16539); binding: 0%
ALK tyrosine kinase receptor (ALK, Homo sapiens, UniProt Q9UM73, C1156Y); cell-free assay: 69%

Series 4 — cell line: mouse MPNST tumor cells; technique: high-content nuclear imaging; measured: cell number; concentration: 10 µM; time: 12 h; setting: mean of 2 replicates; reference: plate mean; reading: higher = more cells; quantity: nuclei count
Oc1ccc(-c2c(-c3ccccc3)nn3c(C(F)(F)F)cc(C(F)(F)F)nc23)cc1: 1.36 z-score
O=C(c1ccccc1)c1ccc2n1CCC2C(=O)O (stereo not drawn): 0.537 z-score
COc1c(O[C@@H]2O[C@H](CO)[C@@H](O)[C@H](O)[C@H]2O)cc2c(c1OC)-c1ccc(SC)c(=O)cc1[C@@H](NC(C)=O)CC2: -1.3 z-score
CC(C)[C@H](NS(=O)(=O)c1ccc(-c2ccc(Br)cc2)cc1)C(=O)O: 1.43 z-score

Series 5 — Structure (SMILES): O=C1Cc2c([nH]c3ccc(Br)cc23)-c2ccccc2N1; observed: enzyme activity; action: inhibitor; concentration: 0.5 µM; reference: control; quantity: remaining activity
TGF-beta receptor type-1 (TGFBR1, Homo sapiens, UniProt P36897): 97.7%
Mitogen-activated protein kinase kinase kinase 3 (MAP3K3, Homo sapiens, UniProt Q99759): 93.2%
Serine/threonine-protein kinase Nek2 (NEK2, Homo sapiens, UniProt P51955): 87.1%
Tyrosine-protein kinase Lyn, isoform B (LYN, Homo sapiens, UniProt P07948): 75.4%
Cyclin-dependent kinase 5, with p25 (CDK5, Homo sapiens, UniProt Q00535): 64.8%
Protein kinase C alpha type (PRKCA, Homo sapiens, UniProt P17252): 98.6%
TGF-beta receptor type-2 (TGFBR2, Homo sapiens, UniProt P37173): 74.2%
Inhibitor of nuclear factor kappa-B kinase subunit epsilon (IKBKE, Homo sapiens, UniProt Q14164): 89.8%
Inhibitor of nuclear factor kappa-B kinase subunit beta (IKBKB, Homo sapiens, UniProt O14920): 101%
cGMP-dependent protein kinase 1, isoform beta (PRKG1, Homo sapiens, UniProt Q13976): 93%
Serine/threonine-protein kinase Chk2 (CHEK2, Homo sapiens, UniProt O96017): 59%
Protein kinase C beta type, isoform beta-I (PRKCB, Homo sapiens, UniProt P05771): 93.1%
G protein-coupled receptor kinase 3 (GRK3, Homo sapiens, UniProt P35626): 109%
Death-associated protein kinase 2 (DAPK2, Homo sapiens, UniProt Q9UIK4): 100%
Calcium/calmodulin-dependent protein kinase type II subunit delta (CAMK2D, Homo sapiens, UniProt Q13557): 91.1%
Mitogen-activated protein kinase 9 (MAPK9, Homo sapiens, UniProt P45984): 93.8%
Death-associated protein kinase 1 (DAPK1, Homo sapiens, UniProt P53355): 101%
Calcium/calmodulin-dependent protein kinase kinase 2 (CAMKK2, Homo sapiens, UniProt Q96RR4): 77.8%
Serine/threonine-protein kinase OSR1 (OXSR1, Homo sapiens, UniProt O95747): 107%
STE20/SPS1-related proline-alanine-rich protein kinase (STK39, Homo sapiens, UniProt Q9UEW8): 90.1%
Serine/threonine-protein kinase 10 (STK10, Homo sapiens, UniProt O94804): 89.8%
Serine/threonine-protein kinase STK11 (STK11, Homo sapiens, UniProt Q15831): 95.7%
cAMP-dependent protein kinase catalytic subunit alpha (PRKACA, Homo sapiens, UniProt P17612): 102%
Cyclin-dependent kinase 4, with cyclin D1 (CDK4, Homo sapiens, UniProt P11802): 84%

Series 6 — observed: binding; concentration: 1 µM; quantity: remaining binding
Structure (SMILES): COc1ccc2[nH]c3c4[nH]c5ccc(OC)cc5c4c4c(c3c2c1)C(=O)NC4=O
Calcium/calmodulin-dependent protein kinase type 1B (PNCK, Homo sapiens, UniProt Q6P2M8): 78%
Mast/stem cell growth factor receptor Kit (KIT, Homo sapiens, UniProt P10721, A829P): 15%
Tyrosine-protein kinase ABL1, phosphorylated (ABL1, Homo sapiens, UniProt P00519, E255K); competition with immobilised ligand: 64%
Protein-tyrosine kinase 2-beta (PTK2B, Homo sapiens, UniProt Q14289): 68%

For quick reference, copied from above (series 2):
O=c1c(O)c(-c2ccc(O)c(O)c2)oc2c(O[C@@H]3O[C@H](CO)[C@@H](O)[C@H](O)[C@H]3O)c(O)cc(O)c12: 103%
C=C(C)[C@@H]1CC[C@]2(C(=O)O)CC[C@]3(C)[C@H](CC[C@@H]4[C@@]5(C)CC[C@H](O)C(C)(C)[C@@H]5CC[C@]43C)[C@@H]12: 83.4%
CC(C)=CCC/C(C)=C/CC/C(C)=C/CO: 94.5%
OC[C@H]1O[C@@H](Oc2c(O)cc(O)cc2/C=C\c2ccc(O)cc2)[C@H](O)[C@@H](O)[C@@H]1O: 111%
CCCCCCCCCCCCCCCC(=O)O: 87%
O=C(O)CC(O)(CC(=O)OCc1ccc(O[C@@H]2O[C@H](CO)[C@@H](O)[C@H](O)[C@H]2O)cc1)C(=O)OCc1ccc(O[C@@H]2O[C@H](CO)[C@@H](O)[C@H](O)[C@H]2O)cc1 (stereo partly drawn): 106%
